Published values of several laboratories.
Lines come from different studies, so protocols differ. ± marks the error that the study gave.
SRC: Proto-oncogene tyrosine-protein kinase Src (SRC, Homo sapiens, UniProt P12931)
UniProt Q13936, sequence (whole entry, looked up): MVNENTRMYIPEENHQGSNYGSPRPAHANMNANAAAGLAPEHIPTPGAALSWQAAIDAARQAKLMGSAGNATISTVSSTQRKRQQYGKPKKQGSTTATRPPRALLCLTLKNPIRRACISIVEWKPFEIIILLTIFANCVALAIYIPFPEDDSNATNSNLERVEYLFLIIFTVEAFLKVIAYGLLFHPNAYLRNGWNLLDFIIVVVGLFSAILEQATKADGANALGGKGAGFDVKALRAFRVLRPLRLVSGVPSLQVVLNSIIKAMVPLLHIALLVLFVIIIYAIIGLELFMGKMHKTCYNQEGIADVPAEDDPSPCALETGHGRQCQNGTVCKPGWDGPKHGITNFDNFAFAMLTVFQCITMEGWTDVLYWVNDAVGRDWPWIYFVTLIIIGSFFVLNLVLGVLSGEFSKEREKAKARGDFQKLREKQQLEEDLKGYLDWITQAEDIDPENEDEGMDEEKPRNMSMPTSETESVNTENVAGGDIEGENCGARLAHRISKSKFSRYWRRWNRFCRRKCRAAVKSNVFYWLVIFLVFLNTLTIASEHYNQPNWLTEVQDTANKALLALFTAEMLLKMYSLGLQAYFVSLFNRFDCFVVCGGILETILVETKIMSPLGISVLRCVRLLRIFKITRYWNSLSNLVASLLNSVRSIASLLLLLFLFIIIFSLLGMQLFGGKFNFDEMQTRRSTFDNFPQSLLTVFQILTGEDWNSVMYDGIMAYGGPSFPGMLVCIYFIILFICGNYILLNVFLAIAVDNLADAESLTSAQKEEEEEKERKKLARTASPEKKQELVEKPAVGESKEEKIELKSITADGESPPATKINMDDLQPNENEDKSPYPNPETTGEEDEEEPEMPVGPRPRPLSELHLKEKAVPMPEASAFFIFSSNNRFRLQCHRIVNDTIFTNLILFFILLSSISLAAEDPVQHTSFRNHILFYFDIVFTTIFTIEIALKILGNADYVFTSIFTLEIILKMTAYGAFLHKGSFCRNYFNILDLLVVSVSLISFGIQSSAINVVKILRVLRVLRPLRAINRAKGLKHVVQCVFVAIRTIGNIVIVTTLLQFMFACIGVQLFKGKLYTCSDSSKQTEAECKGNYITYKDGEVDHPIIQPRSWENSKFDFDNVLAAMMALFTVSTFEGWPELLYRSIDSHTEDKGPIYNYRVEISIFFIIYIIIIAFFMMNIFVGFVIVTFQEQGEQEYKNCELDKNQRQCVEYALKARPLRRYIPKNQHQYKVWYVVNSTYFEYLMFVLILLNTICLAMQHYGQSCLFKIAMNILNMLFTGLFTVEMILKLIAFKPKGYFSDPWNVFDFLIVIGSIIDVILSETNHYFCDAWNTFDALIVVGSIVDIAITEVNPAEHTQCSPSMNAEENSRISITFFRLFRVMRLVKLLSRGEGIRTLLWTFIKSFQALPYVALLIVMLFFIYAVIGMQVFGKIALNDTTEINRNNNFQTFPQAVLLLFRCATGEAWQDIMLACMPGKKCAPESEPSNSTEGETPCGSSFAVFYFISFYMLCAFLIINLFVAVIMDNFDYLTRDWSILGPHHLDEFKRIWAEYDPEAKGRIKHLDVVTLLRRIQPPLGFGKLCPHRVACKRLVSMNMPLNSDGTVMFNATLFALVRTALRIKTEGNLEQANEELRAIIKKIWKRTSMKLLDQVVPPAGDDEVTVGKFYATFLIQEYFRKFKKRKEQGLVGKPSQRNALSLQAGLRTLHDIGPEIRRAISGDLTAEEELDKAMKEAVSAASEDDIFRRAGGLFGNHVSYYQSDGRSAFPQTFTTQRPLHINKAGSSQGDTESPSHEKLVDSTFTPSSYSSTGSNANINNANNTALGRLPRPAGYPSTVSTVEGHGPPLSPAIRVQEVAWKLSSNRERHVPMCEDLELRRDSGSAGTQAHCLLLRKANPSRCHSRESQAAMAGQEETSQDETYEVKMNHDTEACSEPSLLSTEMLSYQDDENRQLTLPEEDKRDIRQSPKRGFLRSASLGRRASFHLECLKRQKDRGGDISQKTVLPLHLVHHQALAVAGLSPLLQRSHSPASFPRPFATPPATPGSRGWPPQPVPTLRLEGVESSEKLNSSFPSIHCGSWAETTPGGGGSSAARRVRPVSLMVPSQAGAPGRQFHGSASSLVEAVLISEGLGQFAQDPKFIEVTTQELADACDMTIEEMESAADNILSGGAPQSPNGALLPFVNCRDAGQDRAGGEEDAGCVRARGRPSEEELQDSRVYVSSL
UniProt Q8HZR1, sequence (whole entry, looked up): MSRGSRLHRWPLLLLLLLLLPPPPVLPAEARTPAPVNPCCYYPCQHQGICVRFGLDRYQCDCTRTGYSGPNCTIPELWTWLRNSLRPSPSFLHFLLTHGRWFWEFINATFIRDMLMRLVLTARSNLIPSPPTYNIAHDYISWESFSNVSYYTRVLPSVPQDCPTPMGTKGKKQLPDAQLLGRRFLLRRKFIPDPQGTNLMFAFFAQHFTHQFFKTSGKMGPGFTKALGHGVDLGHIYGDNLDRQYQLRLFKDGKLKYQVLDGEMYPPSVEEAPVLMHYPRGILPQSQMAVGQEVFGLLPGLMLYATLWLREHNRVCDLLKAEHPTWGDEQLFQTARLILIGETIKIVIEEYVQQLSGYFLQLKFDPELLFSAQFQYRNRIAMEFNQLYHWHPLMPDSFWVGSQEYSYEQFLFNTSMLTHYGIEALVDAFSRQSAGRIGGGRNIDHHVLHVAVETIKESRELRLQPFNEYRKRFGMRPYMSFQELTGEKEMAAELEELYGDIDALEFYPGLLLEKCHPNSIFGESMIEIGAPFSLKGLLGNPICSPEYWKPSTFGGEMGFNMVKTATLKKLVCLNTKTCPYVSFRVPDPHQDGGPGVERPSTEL
UniProt P20618, sequence (whole entry, looked up): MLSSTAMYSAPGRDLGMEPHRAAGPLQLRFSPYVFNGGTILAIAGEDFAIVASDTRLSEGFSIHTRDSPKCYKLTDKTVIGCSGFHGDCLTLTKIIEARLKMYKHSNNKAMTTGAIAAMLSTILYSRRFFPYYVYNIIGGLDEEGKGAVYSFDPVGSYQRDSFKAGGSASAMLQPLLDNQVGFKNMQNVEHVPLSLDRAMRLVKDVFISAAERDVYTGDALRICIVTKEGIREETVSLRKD
UniProt Q9HT15, sequence (whole entry, looked up): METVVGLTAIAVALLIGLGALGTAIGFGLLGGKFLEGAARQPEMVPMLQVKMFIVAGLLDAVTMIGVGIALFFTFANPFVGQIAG
UniProt Q96HE7, sequence (whole entry, looked up): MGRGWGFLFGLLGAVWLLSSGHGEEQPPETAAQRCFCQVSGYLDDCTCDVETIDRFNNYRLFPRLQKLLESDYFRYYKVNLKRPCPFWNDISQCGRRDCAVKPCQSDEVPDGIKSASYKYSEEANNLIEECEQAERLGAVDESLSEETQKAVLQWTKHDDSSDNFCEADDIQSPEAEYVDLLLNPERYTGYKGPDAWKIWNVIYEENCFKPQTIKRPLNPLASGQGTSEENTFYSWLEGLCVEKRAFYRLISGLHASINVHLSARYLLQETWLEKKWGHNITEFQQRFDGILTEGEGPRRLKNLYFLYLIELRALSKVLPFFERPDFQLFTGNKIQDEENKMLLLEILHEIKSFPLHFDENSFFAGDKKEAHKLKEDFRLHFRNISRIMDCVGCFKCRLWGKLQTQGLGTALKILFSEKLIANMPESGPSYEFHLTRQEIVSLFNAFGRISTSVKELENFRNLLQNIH
UniProt P97612, sequence (whole entry, looked up): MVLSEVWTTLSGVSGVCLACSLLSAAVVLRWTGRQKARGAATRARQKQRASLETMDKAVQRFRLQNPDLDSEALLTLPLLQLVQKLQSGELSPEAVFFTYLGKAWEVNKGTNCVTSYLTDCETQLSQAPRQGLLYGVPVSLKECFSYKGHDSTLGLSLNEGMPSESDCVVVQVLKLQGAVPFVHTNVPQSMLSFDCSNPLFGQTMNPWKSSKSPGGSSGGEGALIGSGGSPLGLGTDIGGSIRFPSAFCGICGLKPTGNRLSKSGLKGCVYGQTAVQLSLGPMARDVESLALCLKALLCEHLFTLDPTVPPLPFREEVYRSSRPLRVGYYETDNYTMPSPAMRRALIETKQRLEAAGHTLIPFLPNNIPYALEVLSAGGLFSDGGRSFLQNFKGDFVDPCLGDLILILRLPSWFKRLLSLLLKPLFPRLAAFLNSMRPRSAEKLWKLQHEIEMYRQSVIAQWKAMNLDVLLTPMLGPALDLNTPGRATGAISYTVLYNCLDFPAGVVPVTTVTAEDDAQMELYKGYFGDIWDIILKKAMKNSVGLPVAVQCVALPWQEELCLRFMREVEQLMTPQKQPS
UniProt Q13526, sequence (whole entry, looked up): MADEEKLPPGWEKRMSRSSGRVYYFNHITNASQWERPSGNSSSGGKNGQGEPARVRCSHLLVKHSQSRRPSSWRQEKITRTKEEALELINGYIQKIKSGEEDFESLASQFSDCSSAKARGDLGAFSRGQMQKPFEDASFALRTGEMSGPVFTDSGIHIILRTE

| SMILES | tested on | test | test system | conditions | quantity | value |
| --- | --- | --- | --- | --- | --- | --- |
| N=C(N)NCCC[C@@H]1NC(=O)[C@H](Cc2c[nH]c3ccccc23)NC(=O)[C@H](CCCNC(=N)N)NC(=O)[C@H](Cc2c[nH]c3ccccc23)NC(=O)[C@H](CCCNC(=N)N)NC(=O)[C@H](Cc2c[nH]c3ccccc23)NC(=O)[C@H](CCCNC(=N)N)NC(=O)[C@H](Cc2c[nH]c3ccccc23)NC(=O)[C@H](CCCNC(=N)N)NC(=O)[C@H](Cc2c[nH]c3ccccc23)NC(=O)[C@H](CCCNC(=N)N)NC(=O)[C@H](Cc2c[nH]c3ccccc23)NC1=O | SRC | enzyme activity, inhibitor, radiometric | – | – | IC50 | 570 nM |
| C=C(F)C(=O)Nc1cnn2ccc(-c3ccc(C4CCCCC4)cc3)nc12 | TEAD4 (Homo sapiens, UniProt Q15561) | TEAD palmitoylation, inhibitor | HEK293T expressing FLAG-tagged target | 24 h, together with: alkyne palmitate | IC50 | 190 nM |
| CCc1nc2cc(C)c(Oc3ccc(OC(F)(F)F)cc3)cc2c(O)c1C | mitochondrial complex III subunit (Frankliniella occidentalis, UniProt I6NC77) | succinate-cytochrome c oxidoreductase activity, inhibitor | Frankliniella occidentalis, mitochondria | 4 min preincubation, 30 °C | IC50 | 2.9 nM |
| O=C(CCCCCCNCc1ccc2c(c1)OCO2)NO | HDAC2 (Homo sapiens, UniProt Q92769) | enzyme activity, inhibitor, fluorescence | – | – | IC50 | 840 nM |
| CC(C)C[C@H](NC(=O)OCc1ccccc1)C(=O)N[C@@H](C[C@H]1CCNC1=O)C(=O)C(=O)NC1CC1 | Genome polyprotein, 3C protease (rhinovirus B14, UniProt P03303) | 3C protease activity, inhibitor, FRET | – | – | IC50 | 180 ± 30 nM |
| C[C@@]12CC[C@@H]3c4cc(Br)c(O)c(Br)c4CC[C@H]3[C@@H]1CCC2=O | AKR1C1 (Homo sapiens, UniProt Q04828) | enzyme activity, inhibitor, absorbance | – | pH 9 | IC50 | 5300 nM |
| O=C(OC(C(F)(F)F)C(F)(F)F)N1CCC(CCn2cc3ccccc3n2)CC1 | Faah (Rattus norvegicus, UniProt P97612) | enzyme activity, inhibitor | – | – | IC50 | > 10000 nM |
| CN(CCOc1ccc(F)cc1)C(=O)c1cccc(S(=O)(=O)N2CCc3ccccc3C2)c1 | CACNA1C (Homo sapiens, UniProt Q13936) | calcium signal, fluorescence | – | – | IC50 | 1550 nM |
| COc1cc(CNC(=O)C[C@H](C)CCC=C(C)C)ccc1OCc1cn(-c2ccccc2Cl)nn1 | MDA-MB-468 breast cancer cells | SRB | – | 10 µM, 48 h | growth percent | 28.5% |
| COC(=O)[C@H](Cc1c[nH]c2ccccc12)NCc1cc2ccccc2nc1OC | ATP synthase subunit c, whole ATP synthase complex (atpE, Pseudomonas aeruginosa, UniProt Q9HT15) | ATP synthesis, inhibitor | Pseudomonas aeruginosa, inverted membrane vesicles | 10 min, together with: NADH | IC50 | 43700 nM |
| Cn1cnnc1Sc1c2c(c(C#N)c3nc4ccccc4n13)CCCC2 | ERO1-like protein alpha (Homo sapiens, UniProt Q96HE7) | enzyme activity, inhibitor, fluorescence | – | – | IC50 | 1400 nM |
| COc1cc(CNC(=O)C[C@H](C)CCC=C(C)C)ccc1OCc1cn(-c2ccc(Br)cc2)nn1 | OVCAR-4 ovarian cancer cells | SRB | – | 10 µM, 48 h | growth percent | 49.5% |
| COc1ccc(C[C@H](NC(=O)Cc2cccc(Oc3ccccc3)c2)C(=O)N[C@@H](Cc2c[nH]c3ccccc23)C(=O)NCc2ccc(C)cc2)cc1OC | Proteasome component C5/PSMB5 (Homo sapiens, UniProt P20618+P28074) | inhibitor | – | – | IC50 | 130 nM |
| C[C@H](OP(=O)(O)O)[C@H]1NC(=O)[C@H](CCCNC(=N)N)NC(=O)[C@@H](CCCNC(=N)N)NC(=O)[C@@H](CCCNC(=N)N)NC(=O)[C@H](CCCNC(=N)N)NC(=O)[C@H](Cc2ccc3ccccc3c2)NC(=O)[C@@H]2CCCCN2C1=O | PIN1 (Homo sapiens, UniProt Q13526) | fluorescence anisotropy competition | – | together with: FITC-labelled probe | IC50 | 680 ± 72 nM |
| NS(=O)(=O)c1ccc(-n2nc(C(F)(F)F)cc2-c2ccc(F)cc2F)cc1 | Prostaglandin G/H synthase 1 (Canis lupus familiaris, UniProt Q8HZR1) | TXB2 formation, inhibitor | clotting dog whole blood | 1 h, 37 °C | IC50 | 50800 nM |
| CC(=O)N[C@@H](CCCNC(=O)[C@H](Cc1ccc([N+](=O)[O-])cc1)NC(=O)[C@H](Cc1ccco1)NC(=O)[C@H](CC1CC1)NC(C)=O)C(N)=O | SRC | Z′-LYTE | – | together with: ATP at Km | IC50 | > 100000 nM |

Excerpt of the above:
| SMILES | tested on | test | test system | conditions | quantity | value |
| --- | --- | --- | --- | --- | --- | --- |
| N=C(N)NCCC[C@@H]1NC(=O)[C@H](Cc2c[nH]c3ccccc23)NC(=O)[C@H](CCCNC(=N)N)NC(=O)[C@H](Cc2c[nH]c3ccccc23)NC(=O)[C@H](CCCNC(=N)N)NC(=O)[C@H](Cc2c[nH]c3ccccc23)NC(=O)[C@H](CCCNC(=N)N)NC(=O)[C@H](Cc2c[nH]c3ccccc23)NC(=O)[C@H](CCCNC(=N)N)NC(=O)[C@H](Cc2c[nH]c3ccccc23)NC(=O)[C@H](CCCNC(=N)N)NC(=O)[C@H](Cc2c[nH]c3ccccc23)NC1=O | SRC | enzyme activity, inhibitor, radiometric | – | – | IC50 | 570 nM |
